Results from different studies.
Parts stem from different laboratories: compare values within a part only. Changes are numbered by the printed parent chain.

Study 1
Target: RNA binding protein fox-1 homolog 2, RRM domain, GST-SBP tag (RBFOX2, Homo sapiens, UniProt O43251-10, residues 100-194)
Technique: RNA Bind-n-Seq
Form: RNA
Medium: in vitro
Tested at: 365 nM
Setting: natural RNA segment, single round, ends assumed
Baseline: no-protein control
Reading: higher = stronger binding
Quantity: RBNS enrichment (R)
Construct (chain): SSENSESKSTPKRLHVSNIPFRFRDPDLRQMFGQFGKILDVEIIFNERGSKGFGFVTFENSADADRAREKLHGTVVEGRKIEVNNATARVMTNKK
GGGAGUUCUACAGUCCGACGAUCACCUCCAUGGAAGCGGGGGCAUGCAAGGGCGAGACAGUUUUUCCUCAUCCCUUGCCAAGCUUCUCUUAGGAUUGGUUUGCAGGGUAUAGAAUCCCAUCACGCGUGGGAAAUGGAAUUCUCGGGUGCCAA: 1.95
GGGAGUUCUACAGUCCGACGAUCAUGGCAGGGGCUCCUCUGUCUGGCCUGCCUUUUUUUCCUGGUCAGCUGCUCUUAGCGCCGGCUCUGCCUCUCCACCCUUGGCAGGGCUGGCUGGAGUUGCUGUGGGGACUUGGAAUUCUCGGGUGCCAA: 0.345
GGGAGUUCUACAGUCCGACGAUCAGAUUCUGAUGCCAGACUGUUAAAACAGGCGCUGGUUCUGAAGCACCGAUGGAAACAGAUUGAUGCAGAUGGAAGGAGGAAGGGAGACUGGGCCCACUGAUUUCCAGCCCUGGAAUUCUCGGGUGCCAA: 0.364
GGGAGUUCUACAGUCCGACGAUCUGCCUCAUUGGGGAAGUUGGCCAGCUGGACUUCAGAGAGCUAAGACACAGCAUUUUCAAAGAUAGCCUGGGAGCACUGUCUCUGACCACCUGUCUUCCUCUGCACCGUGCUGGAAUUCUCGGGUGCCAA: 0.579
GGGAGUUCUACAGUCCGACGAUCAUCCGUGGCUGCUCAUUCUUGCCUACUUUACUCUCCCACUGAAGCAGGUUAGCGUUGAAGGUGGUAUGGAAAAGCCUGCAUGCCUGUUCAAUUCUUUUGUUUCUUCUCCUUGGAAUUCUCGGGUGCCAA: 1.77
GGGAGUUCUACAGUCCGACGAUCCAGGAGCACAAGGAUGUGAUGUGAGGCAGGACCCACCUGGUGGCCUCUGCCCCGUCUCAUGAGGGGCCCGAGCAGAAGCAGGAUAGUUGCUCCGCCUCUGCUGGCACAUUUGGAAUUCUCGGGUGCCAA: 0.556
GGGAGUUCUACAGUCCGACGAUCCAUUCAGUCUCCUACCUUGCAUUCAGGAUGCACAGUUCUCUAAGUCCUGGCCAGCCCCAGCUCAUCACAUUGGGUCCACAGGCAUCCCAGCAUGGGUCCCUGCGCCUCCCUGGAAUUCUCGGGUGCCAA: 0.506
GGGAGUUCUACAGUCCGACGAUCCCAUCCGGGAUGGCCGCCUGUCCCUGACUAUUGAGUCCUGUUGUUGUAAGCCAGGCAUGGAGGGCUCCUGCCCUUCUGCUGAGCCACAGCCCAUUGCAGCACUGUGCUGGUGGAAUUCUCGGGUGCCAA: 0.19
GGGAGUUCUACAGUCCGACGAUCACGGGGAACGCACCAUUUCUGAAACUAUCGAGCGGCUACAGCAGCUCAAAGAGUUCCGCAGCAAACAGGCAGAAGAAGAAUUUUAAUGAAAAAAUUACCCAGAUUGGCUCUGGAAUUCUCGGGUGCCAA: 0.258
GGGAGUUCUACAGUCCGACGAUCUAAUGAAAGAACGUUGCAAAGAUCAUCUGCAUUAUAAUGAGUUGAUGCUGUUCUCACUCCUCUCUUGGAAUUGUGCUGGCCCCUUAGUCUACAAUAAACUGUGCCAAUUAUGGAAUUCUCGGGUGCCAA: 2.79
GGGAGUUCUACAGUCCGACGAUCUUGAAACUGAGAGUGUUGGGAAGGAUAUACUUACGUAAUGGAGCUGUCAAAGCCGAGAGACCAGCCUGCGUCCUAAAGUUUGCUUUAGAGAGUAGGAAUGUCGGGGUUUCUGGAAUUCUCGGGUGCCAA: 0.438
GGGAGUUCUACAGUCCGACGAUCUGGAGAGGAGGCUAAUUGUUGGUUCAGACUCCUCCGCUUGGGUAAAAGACUCCCCUUAUCACUCUCCUCACAGUUGCUCUGCAUCUUUAAAGAGUAUUAGCUUCUGCUUCUGGAAUUCUCGGGUGCCAA: 0.281

Study 2
Target: CCNB1, cyclin fold, Cln2 fusion (human)
Technique: yeast growth competition, sequencing
Medium: yeast
Setting: weak parent motif
Baseline: not given
Reading: higher = stronger binding
Quantity: normalised enrichment score
Starting sequence: RBL1 docking peptide (human); GSAKRRLFGEDPP
GSAKRRMFGEDPP [L7M]: 0.22
GSAKRRLFGEDDP [P12D]: 0.666
GSAKRRLFGEGPP [D11G]: 0.558
GSAKRRLFGEDPD [P13D]: 1.19
GSAKRRLFGIDPP [E10I]: 1.04
GSAKRRLRGEDPP [F8R]: 0.741
GSAKRRLFGPDPP [E10P]: 1.1
GSDKRRLFGEDPP [A3D]: -0.379
GSNKRRLFGEDPP [A3N]: -0.319
GSAKRRLFMEDPP [G9M]: 0.452
GSAKRRLQGEDPP [F8Q]: 0.123
GIAKRRLFGEDPP [S2I]: -0.172
GSAQRRLFGEDPP [K4Q]: -0.325
GSAKRRLFGYDPP [E10Y]: 0.347
GSAKIRLFGEDPP [R5I]: -0.184
GSAKQRLFGEDPP [R5Q]: 0.351
GSAKRRLCGEDPP [F8C]: 0.295
GSAKRRLFGEDPA [P13A]: 0.0994
GSAERRLFGEDPP [K4E]: -0.739
GSAKRILFGEDPP [R6I]: 0.372
GSAKRRLFSEDPP [G9S]: 1.18
GSAKRYLFGEDPP [R6Y]: 0.589
GSAKRRIFGEDPP [L7I]: 1.36
GSAKRRLFGEDSP [P12S]: 1.23
GSAKRRLFIEDPP [G9I]: 1.13

Study 3
Target: Ras GTPase-activating protein-binding protein 1, full length (G3BP1, Homo sapiens, UniProt Q13283)
UniProt Q13283, sequence (whole entry, looked up): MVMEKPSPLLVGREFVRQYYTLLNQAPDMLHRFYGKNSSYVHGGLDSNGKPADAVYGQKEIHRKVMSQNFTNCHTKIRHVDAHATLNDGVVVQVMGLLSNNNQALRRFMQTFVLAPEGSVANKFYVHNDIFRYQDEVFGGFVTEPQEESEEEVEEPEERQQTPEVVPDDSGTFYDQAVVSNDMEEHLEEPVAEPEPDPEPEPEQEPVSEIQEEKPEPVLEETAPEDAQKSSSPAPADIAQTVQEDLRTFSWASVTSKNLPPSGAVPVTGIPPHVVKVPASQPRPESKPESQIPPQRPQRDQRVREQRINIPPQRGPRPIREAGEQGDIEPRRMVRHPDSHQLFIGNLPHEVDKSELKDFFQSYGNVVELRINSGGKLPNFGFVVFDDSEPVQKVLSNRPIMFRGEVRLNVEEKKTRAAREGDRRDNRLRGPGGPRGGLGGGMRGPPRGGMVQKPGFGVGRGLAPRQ
Technique: RNA Bind-n-Seq
Form: RNA
Medium: in vitro
Tested at: 200 nM
Setting: whole 134-nt RNA, ends assumed
Together with: 150 mM LiCl
Baseline: input library
Reading: higher = stronger binding
Quantity: log2 enrichment
All molecules: 7-deaza-guanosine replaces G
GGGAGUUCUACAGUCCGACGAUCGUCCUGUGCUACACAUCGUAUGUACCGAAUCGGUUUUUUUGGUUUUUUUGGAAAAAGGAAAGUAUUAUGUUACGCCGUUCGGAUCUGCACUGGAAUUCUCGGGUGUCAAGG: -1.39
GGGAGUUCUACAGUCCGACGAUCGUCCUGUGCUACACAUCGUAUGUACCGAAUCAAAGUGUGUGUGUGUGUGUGUGUGAAAAAAGUAUUAUGUUACGCCGUUCGGAUCUGCACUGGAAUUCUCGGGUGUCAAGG: -1.01
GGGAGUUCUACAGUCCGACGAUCCCUGUGCUACACAUCGUAUGUACCGAAUCGGGGAAAAAAAGGGGUUUGGGGAAAAAGGGGAAAGUAUUAUGUUACGCCGUUCGGAUCUGCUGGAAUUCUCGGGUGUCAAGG: -0.689
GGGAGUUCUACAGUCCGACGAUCUAACUUUAGAGGAGGAUCUGAUGGAUACGGCAGUGGACGUGGAUUUGGGGAUGGCUAUAAUGGGUAUGGAGGAGGACCUGGAGGUGGCAAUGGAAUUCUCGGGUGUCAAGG: -0.178
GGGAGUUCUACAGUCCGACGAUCAAGUCCUGUGCUACACAUCGUAUGUACCGAAUCGGAAAAAAAGGUGGUUUUUUUGGAAAGUAUUAUGUUACGCCGUUCGGAUCUGCACUUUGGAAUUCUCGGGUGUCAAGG: -1.64
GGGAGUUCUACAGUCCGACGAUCCAAGUCCUGUGCUACACAUCGUAUGUACCGAAUCGGGUUUGGGAAAGGGUUUGGGAAAGUAUUAUGUUACGCCGUUCGGAUCUGCACUUCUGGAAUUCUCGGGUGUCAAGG: -0.921
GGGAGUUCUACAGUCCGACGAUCUCCUGUGCUACACAUCGUAUGUACCGAAUCGGGAAAAAAAGGGUUUGGGAAAAAAAGGGAAAGUAUUAUGUUACGCCGUUCGGAUCUGCAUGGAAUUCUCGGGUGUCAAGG: -0.892
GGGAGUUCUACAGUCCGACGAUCCCUCAAGUCCUGUGCUACACAUCGUAUGUACCGAAUCGGCCGGGGCCGGCCGGAAAGUAUUAUGUUACGCCGUUCGGAUCUGCACUUCCAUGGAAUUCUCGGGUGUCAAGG: 0.572
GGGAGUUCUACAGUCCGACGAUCAGUCCUGUGCUACACAUCGUAUGUACCGAAUCGGAAAAAGGUUUUUUUGGAAAAAGGAAAGUAUUAUGUUACGCCGUUCGGAUCUGCACUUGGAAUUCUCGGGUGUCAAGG: -2.59
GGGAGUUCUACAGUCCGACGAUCAAGUCCUGUGCUACACAUCGUAUGUACCGAAUCGGGAAAAGGGAAAAGGGAAAAGGAAAGUAUUAUGUUACGCCGUUCGGAUCUGCACUUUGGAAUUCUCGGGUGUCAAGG: -0.197
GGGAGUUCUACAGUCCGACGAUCUCAAGUCCUGUGCUACACAUCGUAUGUACCGAAUCGGGUUGGGGUUGGGGUUGGAAAGUAUUAUGUUACGCCGUUCGGAUCUGCACUUCCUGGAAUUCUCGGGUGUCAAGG: -0.313

Study 4
Target: Interferon regulatory factor 5, full length, phosphomimetic (IRF5, Homo sapiens, UniProt Q13568-2, residues 1-514, K96S/S451D/S453D/S456D/S462D)
Technique: protein-binding microarray
Form: double-stranded DNA, one strand shown
Medium: in vitro
Tested at: 250 nM
Setting: 60-bp whole probe
Together with: salmon DNA 0.4 mg/ml
Baseline: random background probes
Reading: higher = stronger binding
Quantity: log fluorescence
Shared flanks, not repeated: GCCTAGCAC … GTCTTGATTCGCTTGACGCTGCTG
TCCATTTTCTAAATGCCCTGGTGCTAG: 0.762 z-score
TCATCTTTCACTACTCCACTGTGCTAG: 4.08 z-score
TTAGGACTGGGTCTCGGTTCGTGCTAG: -0.0841 z-score
CCTATTATATATATCATAAGGTGCTAG: 0.607 z-score
GACGATATCAGCCTCGAGACGTGCTAG: 0.269 z-score
TACGGACTGCTTCTCCTGACGTGCTAG: -0.457 z-score
TTAGATGTCAGTTCCGATTAGTGCTAG: 0.87 z-score
GACGGTCTCGGACTGGGGATGTGCTAG: -0.101 z-score
GAGGGTATCCTTCTCCTGACGTGCTAG: -0.308 z-score
GACGGTTTCGACACCGGGGACGTGCTA: 4.86 z-score
TGTTTTAATTTTCTCTTTGGGTGCTAG: 1.87 z-score
TTAGGTTTCCTTCTCTTTTAGTGCTAG: 1.25 z-score
GACGGACTGGACACTGGGGAAGTGCTA: -0.579 z-score
TTAGGTCTCCTGATCCTTTAGTGCTAG: -0.421 z-score
TCCTTCCACCATCTGATCAGGTGCTAG: 0.371 z-score
GTCGGTATCCTTATCCTGACGTGCTAG: 0.254 z-score
GACGGACTGCGTATCGGGACGTGCTAG: 0.0339 z-score
TTAGGTTTCGGACTGGGTTCGTGCTAG: 5.2 z-score
GACGGACTGGGGTATGGGGACGTGCTA: -0.32 z-score
TCATCTCCGGGGTCTGTGACTGTGCTA: -0.142 z-score
TTAGGATTCCTTTTCCTTTAGTGCTAG: 0.643 z-score
TTAGGTTCCAGTTTCGATTAGTGCTAG: 9.25 z-score
GACGCTATCGGGTATCGAGACGTGCTA: 3.93 z-score

Study 5
Target: ATF1, bZIP domain (human)
Technique: DHFR protein complementation
Medium: yeast
Setting: single substitutions, most at no-binding floor
Baseline: wild-type JUN-FOS pair
Reading: higher = stronger binding
Quantity: binding fitness
Starting sequence: JUN, bZIP domain (human); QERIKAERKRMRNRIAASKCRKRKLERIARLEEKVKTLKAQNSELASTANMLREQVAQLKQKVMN; partner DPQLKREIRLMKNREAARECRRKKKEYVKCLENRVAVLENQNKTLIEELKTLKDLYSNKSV
K34A: -1.46 natural log
K39A: -1.47 natural log
T37A: -1.51 natural log
L38S: -1.53 natural log
R53D: -1.57 natural log
L59Q: -1.18 natural log
K36E: -1.51 natural log
A46C: -1.46 natural log
E32R: -1.55 natural log
R30S: -1.41 natural log
A29C: -1.4 natural log
L38T: -1.55 natural log
T37E: -1.42 natural log
E44M: -1.4 natural log

Excerpt of the above (study 4):
TCATCTTTCACTACTCCACTGTGCTAG: 4.08 z-score
TTAGGACTGGGTCTCGGTTCGTGCTAG: -0.0841 z-score
CCTATTATATATATCATAAGGTGCTAG: 0.607 z-score
GACGATATCAGCCTCGAGACGTGCTAG: 0.269 z-score
TACGGACTGCTTCTCCTGACGTGCTAG: -0.457 z-score
